Experimental data from different studies.
± marks the error that the study gave.

SMILES	test	system	setting	how to read	endpoint	result
CCCC[C@H](NC(=O)COCCOCCNC(=O)CN1CCN(CC(=O)O)CCN(CC(=O)O)CC1)C(=O)N[C@H]1CC(=O)NCCCC[C@@H](C(N)=O)NC(=O)[C@H](Cc2c[nH]c3ccccc23)NC(=O)[C@H](CCCNC(=N)N)NC(=O)[C@@H](Cc2ccccc2)NC(=O)[C@H](Cc2c[nH]cn2)NC1=O [copper-64 labelled]		C57 mice, tumor	intravenous, 0.37 MBq, 4 h		tissue uptake	12.8 ± 1.69 %ID/g
CC(=O)N[C@H](C(=O)N[C@H](C(=O)N[C@H](C(=O)N[C@H](C(=O)N[C@H](C(=O)N[C@@H](Cc1c[nH]cn1)C(=O)N[C@@H](Cc1c[nH]cn1)C(=O)N[C@@H](CCCNC(=N)N)C(=O)NCC(=O)N[C@@H](CC(=O)O)C(=O)N[C@@H](CSC1CC(=O)N(CC(=O)N[C@@H](C(=O)N[C@H](C)C(=O)N[C@H](Cc2c[nH]c3ccccc23)C(=O)N[C@H](Cc2ccc(O)cc2)C(=O)N[C@H](C)C(=O)N[C@H](CC(N)=O)C(=O)N[C@H](Cc2ccccc2)C(=O)N[C@H](CCC(=O)O)C(=O)N[C@H](C)C(=O)N[C@H](CC(C)C)C(=O)N[C@H](CC(C)C)C(=O)N[C@H](CCCNC(=N)N)C(N)=O)[C@H](C)O)C1=O)C(=O)O)C(C)C)C(C)C)C(C)C)C(C)C)C(C)C (stereo partly shown)		mouse, tumour-bearing	dose not given	reference: healthy mice	liver weight	no effect
CC1(C)C(=CC=C2CCCC(C=CC3=[N+](CCCCS(=O)(=O)[O-])c4ccc(S(=O)(=O)O)cc4C3(C)C)=C2Oc2ccc(S(=O)(=O)O)cc2)N(CCCCCC(=O)NCCCC[C@H](NC(=O)[C@@H](CCC(=O)O)NC(=O)[C@@H](CCC(=O)O)NC(=O)[C@@H](CCC(=O)O)NC(=O)CCCCCNC(=O)C2CCC(CNC(=O)CC[C@H](NC(=O)N[C@@H](CCC(=O)O)C(=O)O)C(=O)O)CC2)C(N)=O)c2ccc(S(=O)(=O)O)cc21 (stereo partly shown)	reversed-phase HPLC, C18		5-55% acetonitrile over 30 min		HPLC retention time	23.4 min
CCCC[C@H](NC(=O)[C@H](CC(N)=O)NC(=O)[C@H](CCCNC(=N)N)NC(=O)[C@@H](NC(=O)CNC(=O)[C@H](C)NC(=O)[C@H](CCCCNC(=O)CCC(=O)O[C@@H](C(=O)O[C@H]1C[C@@]2(O)[C@@H](OC(=O)c3ccccc3)[C@@H]3[C@]4(OC(C)=O)CO[C@@H]4C[C@H](O)[C@@]3(C)C(=O)[C@H](O)C(=C1C)C2(C)C)[C@@H](NC(=O)OC(C)(C)C)c1ccccc1)NC(=O)[C@H](C)NC(=O)[C@H](CCCNC(=N)N)NC(=O)[C@@H](NC(=O)CNC(C)=O)C(C)C)C(C)C)C(=O)N[C@@H](Cc1ccccc1)C(=O)N[C@@H](CCCCNC(=O)CCC(=O)O[C@@H](C(=O)O[C@H]1C[C@@]2(O)[C@@H](OC(=O)c3ccccc3)[C@@H]3[C@]4(OC(C)=O)CO[C@@H]4C[C@H](O)[C@@]3(C)C(=O)[C@H](O)C(=C1C)C2(C)C)[C@@H](NC(=O)OC(C)(C)C)c1ccccc1)C(=O)N[C@@H](CO)C(=O)N[C@@H](CCC(=O)O)C(=O)N[C@@H](CO)C(=O)N[C@@H](Cc1ccc(O)cc1)C(=O)O		CD-1 mouse, plasma	intravenous, 50 mg/kg, single dose		Cmax	388 µM
CCCC[C@H](NC(=O)CNC(=O)CNC(=O)CN1CCN(CC(=O)O)CCN(CC(=O)O)CCN(CC(=O)O)CC1)C(=O)N[C@H]1CC(=O)NCCCC[C@@H](C(N)=O)NC(=O)[C@H](Cc2c[nH]c3ccccc23)NC(=O)[C@H](CCCNC(=N)N)NC(=O)[C@@H](Cc2ccccc2)NC(=O)[C@H](Cc2c[nH]cn2)NC1=O [lutetium-177 labelled]		C57 mouse, female, normal organs except kidneys	iv, 0.037 MBq, 2 h		tissue uptake	< 1.37 %ID/g
CCCC[C@H](NC(=O)CCCCCCCNC(=O)CN1CCN(CC(=O)O)CCN(CC(=O)O)CC1)C(=O)N[C@H]1CC(=O)NCCCC[C@@H](C(N)=O)NC(=O)[C@H](Cc2c[nH]c3ccccc23)NC(=O)[C@H](CCCNC(=N)N)NC(=O)[C@@H](Cc2ccccc2)NC(=O)[C@H](Cc2c[nH]cn2)NC1=O [copper-64 labelled]		C57 mice, kidney	intravenous, 0.37 MBq, 24 h		tissue uptake	0.83 ± 0.11 %ID/g
N=C(N)NCCC[C@@H]1NC(=O)[C@H](CCCCNC(=O)CC[C@H](NC(=O)CC[C@H](NC(=O)CN2CCN(CC(=O)O)CCN(CC(=O)O)CCN(CC(=O)O)CC2)C(=O)N[C@@H](CCC(=O)NCCCC[C@@H]2NC(=O)[C@@H](Cc3ccccc3)NC(=O)[C@H](CC(=O)O)NC(=O)CNC(=O)[C@H](CCCNC(=N)N)NC2=O)C(=O)NCCCC[C@@H]2NC(=O)[C@@H](Cc3ccccc3)NC(=O)[C@H](CC(=O)O)NC(=O)CNC(=O)[C@H](CCCNC(=N)N)NC2=O)C(=O)NCCCC[C@@H]2NC(=O)[C@@H](Cc3ccccc3)NC(=O)[C@H](CC(=O)O)NC(=O)CNC(=O)[C@H](CCCNC(=N)N)NC2=O)NC(=O)[C@@H](Cc2ccccc2)NC(=O)[C@H](CC(=O)O)NC(=O)CNC1=O [indium-111 labelled]		female athymic nu/nu mice, heart	intravenous, 0.5 h		tissue uptake	1.45 ± 0.53 %ID/g
CCCC[C@H](NC(=O)CNC(=O)CNC(=O)CN1CCN(CC(=O)O)CCN(CC(=O)O)CC1)C(=O)N[C@H]1CC(=O)NCCCC[C@@H](C(N)=O)NC(=O)[C@H](Cc2c[nH]c3ccccc23)NC(=O)[C@H](CCCNC(=N)N)NC(=O)[C@@H](Cc2ccccc2)NC(=O)[C@H](Cc2c[nH]cn2)NC1=O [technetium-99m labelled]		C57 mouse, skin	iv, 0.037 MBq, 0.5 h		tissue uptake	1.89 ± 0.44 %ID/g
N=C(N)NCCC[C@@H]1NC(=O)[C@H](CCCCNC(=O)CNC(=O)CNC(=O)CNC(=O)CC[C@H](NC(=O)CNC(=O)CNC(=O)CNC(=O)CN2CCN(CC(=O)O)CCN(CC(=O)O)CCN(CC(=O)O)CC2)C(=O)NCC(=O)NCC(=O)NCC(=O)NCCCC[C@@H]2NC(=O)[C@@H](Cc3ccccc3)NC(=O)[C@H](CC(=O)O)NC(=O)CNC(=O)[C@H](CCCNC(=N)N)NC2=O)NC(=O)[C@@H](Cc2ccccc2)NC(=O)[C@H](CC(=O)O)NC(=O)CNC1=O [indium-111 labelled]		female athymic nu/nu mice, blood	intravenous, 1 h		tissue uptake	0.3 ± 0.07 %ID/g
CC(=O)N[C@@H](CO)C(=O)NCC(=O)N[C@@H](CCC(N)=O)C(=O)N[C@H](C(=O)N1CCC[C@H]1C(=O)N[C@@H](Cc1c[nH]c2ccccc12)C(=O)N[C@@H](CCC(=O)O)C(=O)N[C@@H](CCC(=O)O)C(=O)N1CCC[C@H]1C(=O)N[C@@H](Cc1ccc(O)cc1)C(=O)N[C@@H](Cc1ccc(O)cc1)C(=O)N[C@H](C(=O)N[C@H](C(=O)N[C@@H](CCCCN)C(=O)N[C@@H](CCCCN)C(=O)N[C@@H](CO)C(=O)N[C@@H](CO)C(=O)NCC(=O)NCC(=O)N[C@@H](CSC1CC(=O)N(c2ccc3c(c2)C(=O)OC32c3ccc(O)cc3Oc3cc(O)ccc32)C1=O)C(N)=O)C(C)C)C(C)C)C(C)C (stereo partly shown)		SKH1 male mice, blood	intravenous, 100 nmol (about 11 mg/kg)		blood half-life	30 min

Repeated from above:
SMILES	test	system	setting	how to read	endpoint	result
CCCC[C@H](NC(=O)CNC(=O)CNC(=O)CN1CCN(CC(=O)O)CCN(CC(=O)O)CCN(CC(=O)O)CC1)C(=O)N[C@H]1CC(=O)NCCCC[C@@H](C(N)=O)NC(=O)[C@H](Cc2c[nH]c3ccccc23)NC(=O)[C@H](CCCNC(=N)N)NC(=O)[C@@H](Cc2ccccc2)NC(=O)[C@H](Cc2c[nH]cn2)NC1=O [lutetium-177 labelled]		C57 mouse, female, normal organs except kidneys	iv, 0.037 MBq, 2 h		tissue uptake	< 1.37 %ID/g
